Measured values collected from several papers.
Numbered parts are unrelated; each lists some results of a single study.

Set 1
Target: Phosphate system positive regulatory protein PHO4, full length, GST-tagged (PHO4, Saccharomyces cerevisiae, UniProt P07270, residues 1-312)
Technique: competition protein-binding microarray
Form: double-stranded DNA, one strand shown
Sample: in vitro
Concentration: 2 µM
Notes: whole 60-bp probe, lowest competitor level
Added: Cbf1 competitor, 0.05 µM
Reading: higher = stronger binding
Measurement: fluorescence intensity
All sequences stand within: … GTCTTGATTCGCTTGACGCTGCTG
Residues (chain): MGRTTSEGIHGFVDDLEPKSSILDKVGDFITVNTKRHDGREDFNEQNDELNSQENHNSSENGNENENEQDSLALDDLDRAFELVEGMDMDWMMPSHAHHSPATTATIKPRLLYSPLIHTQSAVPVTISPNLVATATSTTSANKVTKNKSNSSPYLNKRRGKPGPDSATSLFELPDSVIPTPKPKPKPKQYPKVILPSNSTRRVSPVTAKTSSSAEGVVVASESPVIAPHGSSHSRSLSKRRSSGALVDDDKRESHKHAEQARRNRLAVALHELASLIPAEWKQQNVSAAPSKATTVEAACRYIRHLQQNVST
TTCATAGTAAAGTTCCTCGTGAAACTGGTTTCTCAA: 4820 a.u.
CTTTCCCGATCTTGTCACCTTACTTTAGCACATTTG: 3920 a.u.
CGGGGTTAAGTTTGCCAGGTGGGTGGCTTGCAGCAG: 5870 a.u.
CATACCCAACCTTTTCACGTGCAATAAGATATTTGT: 16200 a.u.
TGCAGTTCTTCAGCAAACGTGATGGGCAAAACAACG: 9420 a.u.

Set 2
Target: Interferon regulatory factor 7, full length, phosphomimetic (IRF7, Homo sapiens, UniProt Q92985, residues 1-503, S101K/S471D/S472D/S475D/S476D/S477D/S483D/S484D/S487D)
Technique: protein-binding microarray
Form: double-stranded DNA, one strand shown
Sample: in vitro
Concentration: 250 nM
Notes: 60-bp whole probe
Added: salmon DNA 0.4 mg/ml
Relative to: random background probes
Reading: higher = stronger binding
Measurement: log fluorescence
Residues (chain): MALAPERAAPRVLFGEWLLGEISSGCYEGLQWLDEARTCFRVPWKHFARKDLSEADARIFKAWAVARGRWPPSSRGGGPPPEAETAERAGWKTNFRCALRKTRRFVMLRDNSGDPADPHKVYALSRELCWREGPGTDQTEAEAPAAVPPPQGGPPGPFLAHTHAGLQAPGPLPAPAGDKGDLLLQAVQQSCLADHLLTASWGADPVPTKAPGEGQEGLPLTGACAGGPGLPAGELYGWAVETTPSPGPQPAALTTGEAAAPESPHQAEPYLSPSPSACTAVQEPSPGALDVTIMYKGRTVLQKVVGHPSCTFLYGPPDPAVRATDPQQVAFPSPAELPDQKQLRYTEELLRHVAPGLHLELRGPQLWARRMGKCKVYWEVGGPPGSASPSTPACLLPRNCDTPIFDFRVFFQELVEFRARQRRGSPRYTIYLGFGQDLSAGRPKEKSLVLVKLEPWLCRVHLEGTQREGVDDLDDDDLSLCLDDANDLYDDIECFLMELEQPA
GCCTAGCACGACTGACTGCTTATCCTGACGTGCTAGGTCTTGATTCGCTTGACGCTGCTG: -0.276 z-score
GCCTAGCACGACGGTTTCCTTGCCCTGACGTGCTAGGTCTTGATTCGCTTGACGCTGCTG: 1.01 z-score
GCCTAGCACGACGATATCGGGTTTCGTGACGTGCTAGTCTTGATTCGCTTGACGCTGCTG: 1.02 z-score

Set 3
Target: Histone acetyltransferase KAT6A, winged helix 1, GST fusion (KAT6A, Homo sapiens, UniProt Q92794, residues 1-85)
Technique: protein binding microarray
Form: double-stranded DNA, one strand shown
Sample: in vitro
Concentration: not given
Notes: 8-mer, flanks averaged, mean of 2 arrays, mostly near background
Relative to: not given
Reading: higher = stronger binding
Measurement: E-score
Residues (chain): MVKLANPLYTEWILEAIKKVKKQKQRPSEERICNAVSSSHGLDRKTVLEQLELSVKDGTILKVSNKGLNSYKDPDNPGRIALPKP
ACGGCGTC: 0.409
CGTATAAC: 0.167
AGCAACAA: -0.23
CGATTTAG: 0.0422
CTATGGAG: -0.108

Other studies, line by line
PhoQ, residues 284 288 289 292 302 303 DDMDFR  fold induction (PhoP, residues 12 14 15 18 19 GMGLL (Escherichia coli, UniProt P23836); Sort-seq, item: YFP reporter; E. coli; PhoQ-PhoP variant library, added: 10 µM Mg2+; relative to: high Mg2+ state, higher = stronger signaling): 0.671

Excerpt of the above (set 1):
CATACCCAACCTTTTCACGTGCAATAAGATATTTGT: 16200 a.u.
